Published values collected from several papers.
Every numbered part comes from another study and shows a few of its results, in no order.

Study 1
Target: Histone acetyltransferase KAT6A, winged helix 2, GST fusion (KAT6A, Homo sapiens, UniProt Q92794, residues 85-181)
Method: protein binding microarray
Molecule type: double-stranded DNA, one strand shown
Medium: in vitro
Concentration: not given
Setting: 8-mer, flanks averaged, mean of 2 arrays, mostly near background
Relative to: not given
Direction: higher = stronger binding
Residues (chain): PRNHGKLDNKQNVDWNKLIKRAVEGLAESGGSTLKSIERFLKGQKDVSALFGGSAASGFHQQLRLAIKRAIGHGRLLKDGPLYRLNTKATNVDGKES
Sequence	E-score
GCTGTGAC	0.0191
GCTTTGAA	0.128
AAAACTGC	0.0979

Study 2
Target: Ras GTPase-activating protein-binding protein 1, C-terminal RGG region (G3BP1, Homo sapiens, UniProt Q13283)
Sequence of UniProt Q13283 (whole entry, looked up): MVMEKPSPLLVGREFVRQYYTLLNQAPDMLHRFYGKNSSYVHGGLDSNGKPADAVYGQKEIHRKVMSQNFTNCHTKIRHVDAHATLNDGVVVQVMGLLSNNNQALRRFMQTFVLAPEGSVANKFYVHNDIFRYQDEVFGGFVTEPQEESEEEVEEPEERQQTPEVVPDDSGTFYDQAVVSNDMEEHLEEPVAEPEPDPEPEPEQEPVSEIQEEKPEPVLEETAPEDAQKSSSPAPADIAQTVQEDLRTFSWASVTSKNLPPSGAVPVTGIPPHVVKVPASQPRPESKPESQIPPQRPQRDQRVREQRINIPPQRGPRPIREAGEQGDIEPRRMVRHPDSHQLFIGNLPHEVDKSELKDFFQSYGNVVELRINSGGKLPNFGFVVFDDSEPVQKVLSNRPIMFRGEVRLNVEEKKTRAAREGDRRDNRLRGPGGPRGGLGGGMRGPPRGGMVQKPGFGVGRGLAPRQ
Method: RNA Bind-n-Seq
Molecule type: RNA
Medium: in vitro
Concentration: 1 µM
Setting: whole 134-nt RNA, ends assumed
Together with: 150 mM KCl
Relative to: input library
Direction: higher = stronger binding
Sequence	log2 enrichment
GGGAGUUCUACAGUCCGACGAUCCUGUGCUACACAUCGUAUGUACCGAAUCGGAAAAAAAGGGAAAAAAAGGGGAAAAAAAGGGGAAAGUAUUAUGUUACGCCGUUCGGAUCUUGGAAUUCUCGGGUGUCAAGG	-1.05
GGGAGUUCUACAGUCCGACGAUCUGGGAGGUGGAUUUUGUUUAUUUUUUUAGCUCAUUUCCAGGGGUGGGAAUUUUUUUUUAAUAUGUGUCAUGAAUAGAGUUGUUUUUGAAAUGGAAUUCUCGGGUGUCAAGG	1.62
GGGAGUUCUACAGUCCGACGAUCCUGUGCUACACAUCGUAUGUACCGAAUCGGGGAAAAAAGGGGAAAAAAGGGGAAAAAAGGGGAAAGUAUUAUGUUACGCCGUUCGGAUCUUGGAAUUCUCGGGUGUCAAGG	-0.194

Study 3
Target: Interferon regulatory factor 5, full length, phosphomimetic (IRF5, Homo sapiens, UniProt Q13568-2, residues 1-514, K96S/S451D/S453D/S456D/S462D)
Method: protein-binding microarray
Molecule type: double-stranded DNA, one strand shown
Medium: in vitro
Concentration: 250 nM
Setting: 60-bp whole probe
Together with: salmon DNA 0.4 mg/ml
Relative to: random background probes
Direction: higher = stronger binding
Shared flanks, not repeated: GCCTAGCAC … GTCTTGATTCGCTTGACGCTGCTG
Sequence	log fluorescence [z-score]
TTTGGTTTCGGTTCCGGTTAGTGCTAG	11.2
AATTCTTTGCTCATTTTTCAGGTGCTA	0.932
TCAATCCTATATCTGAAACTGTGCTAG	0.762
TTAGGTAGCGACTTTCGGTTAGTGCTA	9.54
GACGGAATGGACTTTCGGGACGTGCTA	4.78

Mixed results
Substance	target	test	test system	conditions	scale	quantity	result
PhoQ, residues 284 288 289 292 302 303 TLMATV	PhoP, residues 12 14 15 18 19 TTLRV (Escherichia coli, UniProt P23836)	Sort-seq, measured: YFP reporter	E. coli	PhoQ-PhoP variant library, together with: 10 µM Mg2+	relative to: high Mg2+ state, higher = stronger signaling	fold induction	17.6

For quick reference, copied from above (study 3):
Sequence	log fluorescence [z-score]
TTTGGTTTCGGTTCCGGTTAGTGCTAG	11.2
